{"data": "Results collected from several papers", "note": "Each numbered part is a random draw from the data of one study; scales do not carry over between parts. Several values in a cell are separate wells, animals, samples, runs or records.", "chain of UniProt P43250 (whole entry, looked up)": "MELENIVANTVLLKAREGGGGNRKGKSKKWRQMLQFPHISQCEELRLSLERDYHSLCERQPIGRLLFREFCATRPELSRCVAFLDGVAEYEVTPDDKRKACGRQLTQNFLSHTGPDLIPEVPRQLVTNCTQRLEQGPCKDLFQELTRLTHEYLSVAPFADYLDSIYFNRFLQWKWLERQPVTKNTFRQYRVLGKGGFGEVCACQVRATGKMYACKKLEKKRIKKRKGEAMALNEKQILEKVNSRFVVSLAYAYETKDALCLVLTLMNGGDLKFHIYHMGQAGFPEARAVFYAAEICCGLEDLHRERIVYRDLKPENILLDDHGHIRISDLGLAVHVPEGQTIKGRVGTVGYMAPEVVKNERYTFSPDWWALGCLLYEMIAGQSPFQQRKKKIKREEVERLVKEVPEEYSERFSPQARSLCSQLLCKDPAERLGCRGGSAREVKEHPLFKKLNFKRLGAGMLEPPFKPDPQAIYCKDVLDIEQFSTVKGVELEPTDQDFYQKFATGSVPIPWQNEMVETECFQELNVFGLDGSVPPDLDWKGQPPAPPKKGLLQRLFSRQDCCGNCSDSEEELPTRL", "chain of UniProt Q9H2K8 (whole entry, looked up)": "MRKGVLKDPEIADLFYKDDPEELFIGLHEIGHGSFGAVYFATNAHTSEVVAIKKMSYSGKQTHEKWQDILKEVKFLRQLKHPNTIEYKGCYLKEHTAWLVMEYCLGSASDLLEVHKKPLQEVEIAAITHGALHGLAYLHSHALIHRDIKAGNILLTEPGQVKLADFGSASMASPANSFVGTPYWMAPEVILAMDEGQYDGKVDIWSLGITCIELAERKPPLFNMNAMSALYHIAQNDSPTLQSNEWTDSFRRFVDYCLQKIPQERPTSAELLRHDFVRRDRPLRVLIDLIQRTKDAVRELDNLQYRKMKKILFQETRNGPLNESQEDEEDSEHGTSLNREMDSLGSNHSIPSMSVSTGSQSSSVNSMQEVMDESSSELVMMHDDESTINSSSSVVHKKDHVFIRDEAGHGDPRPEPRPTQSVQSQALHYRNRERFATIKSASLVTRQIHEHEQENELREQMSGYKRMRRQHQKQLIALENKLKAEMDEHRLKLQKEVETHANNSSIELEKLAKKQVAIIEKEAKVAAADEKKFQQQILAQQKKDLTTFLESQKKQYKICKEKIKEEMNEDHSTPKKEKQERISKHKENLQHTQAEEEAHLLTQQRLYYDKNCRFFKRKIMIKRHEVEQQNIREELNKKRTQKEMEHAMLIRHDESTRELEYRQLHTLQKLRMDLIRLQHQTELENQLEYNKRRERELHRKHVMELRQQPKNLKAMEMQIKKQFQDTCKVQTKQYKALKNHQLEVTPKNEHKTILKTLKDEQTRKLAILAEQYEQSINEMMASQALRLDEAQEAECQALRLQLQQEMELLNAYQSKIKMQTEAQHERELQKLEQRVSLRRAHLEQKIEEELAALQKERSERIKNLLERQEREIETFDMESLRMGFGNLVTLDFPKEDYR", "chain of UniProt P53779 (whole entry, looked up)": "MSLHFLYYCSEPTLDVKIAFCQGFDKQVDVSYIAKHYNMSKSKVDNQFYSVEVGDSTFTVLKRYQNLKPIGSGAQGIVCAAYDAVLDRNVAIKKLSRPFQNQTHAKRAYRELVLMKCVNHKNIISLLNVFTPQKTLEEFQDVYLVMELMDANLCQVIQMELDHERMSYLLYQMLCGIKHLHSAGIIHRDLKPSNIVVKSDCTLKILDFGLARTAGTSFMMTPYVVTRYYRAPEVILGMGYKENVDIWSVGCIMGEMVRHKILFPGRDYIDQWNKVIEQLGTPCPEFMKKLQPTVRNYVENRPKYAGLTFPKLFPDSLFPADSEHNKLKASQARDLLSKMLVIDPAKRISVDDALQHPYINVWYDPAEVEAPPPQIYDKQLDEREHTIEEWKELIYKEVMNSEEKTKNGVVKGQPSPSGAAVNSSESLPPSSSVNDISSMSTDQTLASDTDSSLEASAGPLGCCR", "chain of UniProt Q9UBE8 (whole entry, looked up)": "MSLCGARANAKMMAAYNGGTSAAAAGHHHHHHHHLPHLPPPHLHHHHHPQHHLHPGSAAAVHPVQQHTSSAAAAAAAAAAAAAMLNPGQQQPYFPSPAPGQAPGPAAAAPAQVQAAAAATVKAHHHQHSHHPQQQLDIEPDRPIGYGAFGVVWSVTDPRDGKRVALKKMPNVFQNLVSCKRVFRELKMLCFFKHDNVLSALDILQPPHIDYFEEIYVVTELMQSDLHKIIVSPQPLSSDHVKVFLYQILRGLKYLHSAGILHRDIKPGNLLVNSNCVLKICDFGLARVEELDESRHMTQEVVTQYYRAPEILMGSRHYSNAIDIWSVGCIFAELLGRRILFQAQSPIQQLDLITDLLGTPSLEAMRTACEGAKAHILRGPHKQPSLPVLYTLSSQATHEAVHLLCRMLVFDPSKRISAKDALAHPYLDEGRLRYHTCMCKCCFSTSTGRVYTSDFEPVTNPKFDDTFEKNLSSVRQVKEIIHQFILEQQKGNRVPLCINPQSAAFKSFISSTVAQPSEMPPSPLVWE", "chain of UniProt Q8IU85 (whole entry, looked up)": "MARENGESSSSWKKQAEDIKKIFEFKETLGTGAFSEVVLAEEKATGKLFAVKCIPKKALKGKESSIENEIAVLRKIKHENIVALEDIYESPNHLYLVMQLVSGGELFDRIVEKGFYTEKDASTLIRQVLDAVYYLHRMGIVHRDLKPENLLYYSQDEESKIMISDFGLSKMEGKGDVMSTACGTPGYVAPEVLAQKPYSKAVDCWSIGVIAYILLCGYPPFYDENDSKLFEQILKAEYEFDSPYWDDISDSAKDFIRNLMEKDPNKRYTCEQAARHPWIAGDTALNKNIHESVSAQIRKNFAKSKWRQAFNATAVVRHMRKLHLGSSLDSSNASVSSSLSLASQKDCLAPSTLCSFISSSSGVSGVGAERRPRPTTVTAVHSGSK", "chain of UniProt Q16513 (whole entry, looked up)": "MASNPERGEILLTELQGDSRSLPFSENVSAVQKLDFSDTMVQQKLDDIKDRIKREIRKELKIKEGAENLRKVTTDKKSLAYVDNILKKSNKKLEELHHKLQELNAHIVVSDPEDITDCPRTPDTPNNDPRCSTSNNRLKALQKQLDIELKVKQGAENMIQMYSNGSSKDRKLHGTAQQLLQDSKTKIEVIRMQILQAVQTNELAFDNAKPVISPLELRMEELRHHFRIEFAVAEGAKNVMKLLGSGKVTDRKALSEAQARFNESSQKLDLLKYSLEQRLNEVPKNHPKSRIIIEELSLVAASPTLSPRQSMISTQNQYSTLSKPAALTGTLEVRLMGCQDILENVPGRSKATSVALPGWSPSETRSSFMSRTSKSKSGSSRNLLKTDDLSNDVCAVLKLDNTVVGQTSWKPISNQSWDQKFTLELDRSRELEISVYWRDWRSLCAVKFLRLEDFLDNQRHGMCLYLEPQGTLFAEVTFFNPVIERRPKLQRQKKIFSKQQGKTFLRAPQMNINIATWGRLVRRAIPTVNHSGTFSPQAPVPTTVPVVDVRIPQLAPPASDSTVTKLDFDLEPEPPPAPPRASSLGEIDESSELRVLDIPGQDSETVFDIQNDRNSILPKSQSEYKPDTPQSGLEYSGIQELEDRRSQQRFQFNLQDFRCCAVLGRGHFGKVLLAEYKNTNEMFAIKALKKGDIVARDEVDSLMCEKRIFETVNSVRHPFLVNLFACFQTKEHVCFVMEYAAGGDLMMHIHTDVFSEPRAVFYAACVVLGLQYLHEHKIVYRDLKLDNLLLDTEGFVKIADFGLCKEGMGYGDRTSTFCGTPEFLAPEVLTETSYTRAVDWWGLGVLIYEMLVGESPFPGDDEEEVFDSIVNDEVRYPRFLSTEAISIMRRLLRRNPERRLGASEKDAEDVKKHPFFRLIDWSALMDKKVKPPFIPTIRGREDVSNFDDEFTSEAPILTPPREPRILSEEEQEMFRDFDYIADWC", "chain of UniProt Q13882 (whole entry, looked up)": "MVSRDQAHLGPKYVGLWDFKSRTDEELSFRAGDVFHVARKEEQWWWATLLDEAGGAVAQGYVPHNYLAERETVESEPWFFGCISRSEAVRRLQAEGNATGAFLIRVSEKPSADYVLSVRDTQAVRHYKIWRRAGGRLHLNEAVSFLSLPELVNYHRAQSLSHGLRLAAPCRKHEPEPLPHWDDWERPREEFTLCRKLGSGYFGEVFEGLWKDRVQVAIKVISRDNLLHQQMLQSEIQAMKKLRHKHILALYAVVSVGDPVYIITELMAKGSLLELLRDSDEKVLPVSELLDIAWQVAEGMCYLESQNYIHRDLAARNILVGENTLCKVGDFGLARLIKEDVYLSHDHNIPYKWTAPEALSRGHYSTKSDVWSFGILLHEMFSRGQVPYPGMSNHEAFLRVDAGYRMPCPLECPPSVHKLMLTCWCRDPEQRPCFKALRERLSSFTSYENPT"}
{"data": "Block 1", "target": "Calcium/calmodulin-dependent protein kinase type II subunit alpha (CAMK2A, Homo sapiens, UniProt Q9UQM7)", "effect on": "enzyme activity", "mode": "inhibitor", "tested at": "10 µM", "chain of UniProt Q9UQM7 (whole entry, looked up)": "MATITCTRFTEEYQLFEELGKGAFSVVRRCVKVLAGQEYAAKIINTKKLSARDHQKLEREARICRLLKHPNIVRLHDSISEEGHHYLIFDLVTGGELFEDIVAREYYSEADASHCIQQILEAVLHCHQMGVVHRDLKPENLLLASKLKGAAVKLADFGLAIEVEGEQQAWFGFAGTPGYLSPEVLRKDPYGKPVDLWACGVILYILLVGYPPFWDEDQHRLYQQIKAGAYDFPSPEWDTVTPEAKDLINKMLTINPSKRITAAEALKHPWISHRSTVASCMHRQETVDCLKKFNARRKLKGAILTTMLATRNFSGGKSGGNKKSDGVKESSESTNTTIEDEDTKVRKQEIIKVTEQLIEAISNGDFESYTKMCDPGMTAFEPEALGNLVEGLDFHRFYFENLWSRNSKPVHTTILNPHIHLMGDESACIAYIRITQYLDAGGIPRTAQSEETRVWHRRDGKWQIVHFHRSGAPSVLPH"}
{"SMILES": "C[C@@H]1O[C@@H](Oc2c(-c3ccc(O)cc3)oc3cc(O[C@@H]4O[C@@H](C)[C@H](O)[C@@H](O)[C@H]4O[C@@H]4O[C@H](CO)[C@@H](O)[C@H](O)[C@H]4O)cc(O)c3c2=O)[C@H](O)[C@H](O)[C@H]1O", "inhibition [%]": -29}
{"SMILES": "COC(=O)c1cccc(CCN(C)CCC[C@@](C#N)(c2ccc(OC)c(OC)c2)C(C)C)c1", "inhibition [%]": 3}
{"SMILES": "CN(C)C(=O)COC(=O)Cc1ccc(OC(=O)c2ccc(NC(=N)N)cc2)cc1", "inhibition [%]": -3}
{"SMILES": "CC(C)=CCC/C(C)=C/CC/C(C)=C/CC/C(C)=C/CO", "inhibition [%]": 8}
{"SMILES": "NC1(C(=O)O)CC1", "inhibition [%]": 14}
{"SMILES": "CCCCC(=O)O[C@H](CC(=O)[O-])C[N+](C)(C)C", "inhibition [%]": -27}
{"SMILES": "O=C(NCC(O)CO)c1c(I)c(C(=O)NCC(O)CO)c(I)c(N(CCO)C(=O)CO)c1I (centres unmarked)", "inhibition [%]": -8}
{"SMILES": "O=C(/C=C/c1ccc(O)cc1)c1c(O)cc(O)cc1O", "inhibition [%]": 35}
{"data": "Block 2", "SMILES": "O=S(=O)(NCCNC/C=C/c1ccc(Br)cc1)c1cccc2cnccc12", "effect on": "enzyme activity", "mode": "inhibitor", "tested at": "0.5 µM", "relative to": "control"}
{"target": "MAP3K8 (Homo sapiens, UniProt P41279)", "remaining activity [%]": 99.4}
{"target": "MAP3K2 (Homo sapiens, UniProt Q9Y2U5)", "remaining activity [%]": 91.5}
{"target": "GRK5 (Homo sapiens, UniProt P34947)", "remaining activity [%]": 127}
{"target": "CDK7 (Homo sapiens, UniProt P50613)", "remaining activity [%]": 82.8}
{"target": "PKN2 (Homo sapiens, UniProt Q16513)", "remaining activity [%]": 78.9}
{"target": "MAPK10 (Homo sapiens, UniProt P53779)", "remaining activity [%]": 92.6}
{"target": "NEK9 (Homo sapiens, UniProt Q8TD19)", "remaining activity [%]": 99.3}
{"target": "DYRK4 (Homo sapiens, UniProt Q9NR20)", "remaining activity [%]": 96.4}
{"target": "NTRK3 (Homo sapiens, UniProt Q16288)", "remaining activity [%]": 79.6}
{"target": "DMPK (Homo sapiens, UniProt Q09013)", "remaining activity [%]": 96.6}
{"target": "HIPK3 (Homo sapiens, UniProt Q9H422)", "remaining activity [%]": 81.7}
{"target": "Aurora kinase A (AURKA, Homo sapiens, UniProt O14965)", "remaining activity [%]": 104}
{"target": "CSNK2A2 (Homo sapiens, UniProt P19784)", "remaining activity [%]": 86.6}
{"target": "BRSK1 (Homo sapiens, UniProt Q8TDC3)", "remaining activity [%]": 92}
{"target": "RET (Homo sapiens, UniProt P07949)", "remaining activity [%]": 102}
{"target": "SLK (Homo sapiens, UniProt Q9H2G2)", "remaining activity [%]": 93}
{"target": "PRKD1 (Homo sapiens, UniProt Q15139)", "remaining activity [%]": 98.7}
{"target": "Cyclin-dependent kinase 2, with cyclin A (CDK2, Homo sapiens, UniProt P24941)", "remaining activity [%]": 105}
{"target": "CAMK1G (Homo sapiens, UniProt Q96NX5)", "remaining activity [%]": 99.1}
{"target": "CAMK1D (Homo sapiens, UniProt Q8IU85)", "remaining activity [%]": 85.5}
{"target": "ROS1 (Homo sapiens, UniProt P08922)", "remaining activity [%]": 99.6}
{"target": "PTK2B (Homo sapiens, UniProt Q14289)", "remaining activity [%]": 85}
{"data": "Block 3", "SMILES": "CC(C)S(=O)(=O)c1ccc2nccc(Nc3ccc4sc(C5CCCC5)nc4c3)c2c1.Cl", "tested at": "1 µM"}
{"target": "MAP3K5 (Homo sapiens, UniProt Q99683)", "test": "kinase activity, inhibitor", "remaining activity": "106%"}
{"target": "FGFR1 (Homo sapiens, UniProt P11362)", "test": "kinase activity, inhibitor", "remaining activity": "109%"}
{"target": "ACVR1 (Homo sapiens, UniProt Q04771)", "test": "kinase activity, inhibitor", "remaining activity": "112%"}
{"target": "MUSK (Homo sapiens, UniProt O15146)", "test": "kinase activity, inhibitor", "remaining activity": "103%"}
{"target": "NLK (Homo sapiens, UniProt Q9UBE8)", "test": "kinase activity, inhibitor", "remaining activity": "86%"}
{"target": "YES1 (Homo sapiens, UniProt P07947)", "test": "kinase activity, inhibitor", "remaining activity": "92%"}
{"target": "TAOK3 (Homo sapiens, UniProt Q9H2K8)", "test": "kinase activity, inhibitor", "remaining activity": "98%"}
{"target": "LIM domain kinase 1 (LIMK1, Homo sapiens, UniProt P53667)", "test": "kinase activity, inhibitor", "remaining activity": "83%"}
{"target": "RPS6KA1 (Homo sapiens, UniProt Q15418)", "test": "kinase activity, inhibitor", "remaining activity": "95%"}
{"target": "PAK6 (Homo sapiens, UniProt Q9NQU5)", "test": "kinase activity, inhibitor", "remaining activity": "98%"}
{"target": "PTK6 (Homo sapiens, UniProt Q13882)", "test": "kinase activity, inhibitor", "remaining activity": "26%"}
{"target": "GRK6 (Homo sapiens, UniProt P43250)", "test": "kinase activity, inhibitor", "remaining activity": "100% and 121%"}
{"target": "HASPIN (Homo sapiens, UniProt Q8TF76)", "test": "kinase activity, inhibitor", "remaining activity": "85%"}
{"target": "ACTR2(h) (human)", "remaining activity": "99% and 96%"}
{"target": "DYRK1B (Homo sapiens, UniProt Q9Y463)", "test": "kinase activity, inhibitor", "remaining activity": "85%"}
{"data": "Single results of other studies", "target": "WD repeat-containing protein 5 (WDR5, Homo sapiens, UniProt P61964)", "method": "differential scanning fluorimetry", "tested at": "concentration not given", "setting": "unit not given", "relative to": "WDR5 alone"}
{"Compound": "C[C@@H]1CN(c2ccc(-c3cc(C(=O)NCCOCCOCCOCCOCCNC(=O)/C=C/c4[nH]cc(C(=O)N[C@@H](CC(N)=O)c5ccc(F)c(Cl)c5)c4-c4ccc(Cl)cc4F)ccc3F)cc2NC(=O)c2c[nH]c(=O)cc2C(F)(F)F)C[C@H](C)N1C", "ΔTm": "10.8 and 10.3 and 10.7 and 10.5 and 10.4 and 10.6"}
{"Compound": "C[C@@H]1CN(c2ccc(-c3cc(C(=O)NCCOCCOCCOCCOCCNC(=O)Cn4cc(-c5[nH]cc(C(=O)N[C@@H](CC(N)=O)c6ccc(F)c(Cl)c6)c5-c5ccc(Cl)cc5F)cn4)ccc3F)cc2NC(=O)c2c[nH]c(=O)cc2C(F)(F)F)C[C@H](C)N1C", "ΔTm": "13.5 and 13.1 and 13.7 and 13.2 and 13.4 and 13.6 and 13.3"}
{"note": "A few entries again (block 1):"}
{"SMILES": "COC(=O)c1cccc(CCN(C)CCC[C@@](C#N)(c2ccc(OC)c(OC)c2)C(C)C)c1", "inhibition [%]": 3}
{"SMILES": "CCCCC(=O)O[C@H](CC(=O)[O-])C[N+](C)(C)C", "inhibition [%]": -27}
{"SMILES": "CC(C)=CCC/C(C)=C/CC/C(C)=C/CC/C(C)=C/CO", "inhibition [%]": 8}
{"SMILES": "NC1(C(=O)O)CC1", "inhibition [%]": 14}
